Published values gathered from unrelated publications.
Every numbered part comes from another study and shows a few of its results, in no order. Several values in a cell are separate wells, animals, samples, runs or records.

Sample 1
Cell line: mouse MPNST tumor cells
Method: high-content nuclear imaging
Item: cell number
Tested at: 10 µM
Time: 12 h
Setting: mean of 2 replicates
Reference: plate mean
Direction: higher = more cells
Measurement: nuclei count
CCOc1cc(C(=O)Nc2ccc(Cl)c(-c3nc4ccccc4[nH]3)c2)cc(OCC)c1OCC: 5.19 z-score
OC(CCCN1CCCCC1)(c1ccccc1)c1ccccc1: 4.46 z-score and 2.03 z-score
C[N+]1(CCCCC[N+]2(C)CCCC2)CCCC1: -0.106 z-score and -0.195 z-score
Cc1cc(NC(=O)C2=C(O)c3ccccc3S(=O)(=O)N2C)no1: -0.0637 z-score
FCc1ccc(OCCOc2ccc(Cl)cc2Cl)c(Cl)n1: 0.382 z-score
CC(C)Oc1ccc2c(=O)c3cc(C(=O)O)ccc3oc2c1: 0.0819 z-score
CCC(=O)NC1Cc2ccccc2C(c2ccccc2)C1 (stereo not drawn): -0.779 z-score
CCN1C(=CC(C)=O)Sc2ccc(O)cc21: 4.33 z-score
CNc1cc(OC)c(C(=O)NC2CCN(Cc3ccccc3)C2C)cc1Cl (stereo not drawn): 2.7 z-score
NC(CO)C(=O)NNCc1ccc(O)c(O)c1O (stereo not drawn): 1.56 z-score
CC(C)(C)c1ccc(S(=O)(=O)NCc2ccc(C(=O)Nc3cccnc3)cc2)cc1: 0.751 z-score
CCOC(Cn1nc(-c2ccc3oc(N)nc3c2)c2c(N)ncnc21)OCC: -1.65 z-score
CCCCc1cc2ccccc2c(OCCN(C)C)n1: -0.638 z-score
COc1ccnc(C[S+]([O-])c2nc3cc(OC(F)F)ccc3[nH]2)c1OC (stereo not drawn): -0.425 z-score
O=C1c2cccc(O)c2C(=O)c2c(O)cccc21: 0.738 z-score
O=C(O)c1c(Sc2ccccc2)c2cc(Cl)ccc2n1Cc1ccc(Cl)cc1: 0.0367 z-score
CCn1c(-c2nonc2N)nc2cncc(CNC3CCNCC3)c21: -1.29 z-score

Sample 2
Target: DNA polymerase theta, ATPase domain (POLQ, Homo sapiens, UniProt O75417)
UniProt O75417, sequence (whole entry, unmodified, looked up): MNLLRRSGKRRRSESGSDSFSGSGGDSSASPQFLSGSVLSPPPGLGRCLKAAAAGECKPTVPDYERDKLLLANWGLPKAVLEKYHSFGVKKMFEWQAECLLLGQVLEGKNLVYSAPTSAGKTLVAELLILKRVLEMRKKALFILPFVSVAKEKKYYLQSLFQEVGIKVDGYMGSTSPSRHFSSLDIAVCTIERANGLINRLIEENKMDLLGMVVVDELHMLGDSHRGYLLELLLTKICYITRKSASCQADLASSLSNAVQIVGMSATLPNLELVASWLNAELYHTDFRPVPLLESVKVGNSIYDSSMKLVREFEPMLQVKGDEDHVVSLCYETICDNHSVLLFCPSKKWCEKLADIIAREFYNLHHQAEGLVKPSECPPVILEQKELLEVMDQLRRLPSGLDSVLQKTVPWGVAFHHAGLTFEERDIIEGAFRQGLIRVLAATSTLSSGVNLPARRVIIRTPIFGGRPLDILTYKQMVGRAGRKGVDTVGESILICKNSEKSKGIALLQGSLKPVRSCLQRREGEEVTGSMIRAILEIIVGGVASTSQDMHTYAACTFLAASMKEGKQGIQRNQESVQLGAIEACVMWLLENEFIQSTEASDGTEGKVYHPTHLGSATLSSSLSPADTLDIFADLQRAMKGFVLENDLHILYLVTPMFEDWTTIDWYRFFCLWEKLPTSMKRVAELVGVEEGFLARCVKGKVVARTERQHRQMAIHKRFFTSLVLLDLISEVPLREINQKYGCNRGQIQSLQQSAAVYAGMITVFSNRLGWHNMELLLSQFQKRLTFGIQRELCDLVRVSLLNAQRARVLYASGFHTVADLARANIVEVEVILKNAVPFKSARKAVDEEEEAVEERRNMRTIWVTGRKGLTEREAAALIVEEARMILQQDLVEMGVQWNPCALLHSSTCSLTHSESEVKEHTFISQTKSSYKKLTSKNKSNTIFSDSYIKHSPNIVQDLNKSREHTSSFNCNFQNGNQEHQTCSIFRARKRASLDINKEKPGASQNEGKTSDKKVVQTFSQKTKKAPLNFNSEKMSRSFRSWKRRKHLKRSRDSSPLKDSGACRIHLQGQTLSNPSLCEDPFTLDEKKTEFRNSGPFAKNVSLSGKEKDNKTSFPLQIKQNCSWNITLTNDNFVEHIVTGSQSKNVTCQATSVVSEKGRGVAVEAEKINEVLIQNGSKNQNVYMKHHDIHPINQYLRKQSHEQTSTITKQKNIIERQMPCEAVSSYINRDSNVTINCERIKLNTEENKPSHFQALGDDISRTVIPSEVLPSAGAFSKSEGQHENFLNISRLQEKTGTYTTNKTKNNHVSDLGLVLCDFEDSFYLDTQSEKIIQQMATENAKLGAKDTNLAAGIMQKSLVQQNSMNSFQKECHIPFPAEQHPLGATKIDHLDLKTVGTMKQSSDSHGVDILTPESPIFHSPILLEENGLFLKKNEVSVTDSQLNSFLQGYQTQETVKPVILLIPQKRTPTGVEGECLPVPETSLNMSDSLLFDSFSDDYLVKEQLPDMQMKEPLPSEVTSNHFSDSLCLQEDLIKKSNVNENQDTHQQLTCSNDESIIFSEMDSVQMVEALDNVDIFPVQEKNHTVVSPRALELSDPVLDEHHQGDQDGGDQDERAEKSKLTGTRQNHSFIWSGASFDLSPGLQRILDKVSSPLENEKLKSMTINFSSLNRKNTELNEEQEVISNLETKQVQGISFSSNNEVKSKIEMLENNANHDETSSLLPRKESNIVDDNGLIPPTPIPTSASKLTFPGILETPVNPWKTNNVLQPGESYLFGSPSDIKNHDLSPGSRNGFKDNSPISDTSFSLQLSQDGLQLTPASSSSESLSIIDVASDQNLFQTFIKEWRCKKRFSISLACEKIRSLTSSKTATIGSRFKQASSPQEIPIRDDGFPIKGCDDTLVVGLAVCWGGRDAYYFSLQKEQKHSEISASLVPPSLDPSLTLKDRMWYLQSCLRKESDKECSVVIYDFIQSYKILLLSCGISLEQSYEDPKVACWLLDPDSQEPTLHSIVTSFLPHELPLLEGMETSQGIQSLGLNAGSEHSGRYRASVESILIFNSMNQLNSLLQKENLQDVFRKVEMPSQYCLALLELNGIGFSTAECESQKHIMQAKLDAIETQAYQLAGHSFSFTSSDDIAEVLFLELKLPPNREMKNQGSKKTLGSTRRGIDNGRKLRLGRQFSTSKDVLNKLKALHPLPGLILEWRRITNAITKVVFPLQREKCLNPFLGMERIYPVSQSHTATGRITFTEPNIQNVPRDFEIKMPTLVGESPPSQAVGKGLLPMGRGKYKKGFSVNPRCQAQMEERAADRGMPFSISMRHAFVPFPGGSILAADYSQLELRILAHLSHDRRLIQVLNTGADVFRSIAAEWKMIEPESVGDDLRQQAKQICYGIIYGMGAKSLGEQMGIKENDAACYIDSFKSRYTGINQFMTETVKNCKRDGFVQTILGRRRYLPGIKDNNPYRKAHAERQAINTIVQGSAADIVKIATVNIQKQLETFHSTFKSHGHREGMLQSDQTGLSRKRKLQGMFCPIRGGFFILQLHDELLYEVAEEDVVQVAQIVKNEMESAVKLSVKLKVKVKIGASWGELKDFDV
Read-out: enzyme activity
Action: inhibitor
Tested at: 77 µM
Reference: untreated
Measurement: remaining activity
Nc1cc(N2CCCCC2)nc(N)[n+]1[O-]: 106%
C=CC1=C(C(=O)O)N2C(=O)[C@@H](NC(=O)/C(=N\OCC(=O)O)c3csc(N)n3)[C@H]2SC1: 76.7%
COc1c2occc2c(OC)c2c(=O)cc(C)oc12: 98.1%
CCOC(=O)CCNc1cc(N2CCc3ccccc3CC2)nc(-c2ccccn2)n1: 103%
COc1ncnc(NS(=O)(=O)c2ccc(N)cc2)c1OC: 100%
CCN(CC)CCCN(c1ccccc1)C1Cc2ccccc2C1: 99%
Nc1ncnc2c1ncn2[C@@H]1O[C@H](CO)[C@@H](O)[C@H]1O: 90.6% and 102%
O=c1c2ccccc2nc2n1CCc1c-2[nH]c2ccccc12: 99.5% and 96.6%
Cc1ccc(C(=O)c2cc(O)c(O)c([N+](=O)[O-])c2)cc1: 64%
CCc1cc2c(cc1CC)CC(NC[C@H](O)c1ccc(O)c3[nH]c(=O)ccc13)C2: 109%
COC(=O)[C@H]1[C@H]2C[C@@H]3c4[nH]c5cc(OC)ccc5c4CCN3C[C@H]2C[C@@H](OC(=O)c2cc(OC)c(OC)c(OC)c2)[C@@H]1OC: 93.8% and 84.5% and 99.6%
COC(=O)Nc1nc2cc(C(=O)c3ccccc3)ccc2[nH]1: 102%
CC(C)Cn1c(=O)n(C)c(=O)c2[nH]cnc21: 93%

Sample 3
Target: Non-receptor tyrosine-protein kinase TYK2 (TYK2, Homo sapiens, UniProt P29597)
UniProt P29597, sequence (whole entry, looked up): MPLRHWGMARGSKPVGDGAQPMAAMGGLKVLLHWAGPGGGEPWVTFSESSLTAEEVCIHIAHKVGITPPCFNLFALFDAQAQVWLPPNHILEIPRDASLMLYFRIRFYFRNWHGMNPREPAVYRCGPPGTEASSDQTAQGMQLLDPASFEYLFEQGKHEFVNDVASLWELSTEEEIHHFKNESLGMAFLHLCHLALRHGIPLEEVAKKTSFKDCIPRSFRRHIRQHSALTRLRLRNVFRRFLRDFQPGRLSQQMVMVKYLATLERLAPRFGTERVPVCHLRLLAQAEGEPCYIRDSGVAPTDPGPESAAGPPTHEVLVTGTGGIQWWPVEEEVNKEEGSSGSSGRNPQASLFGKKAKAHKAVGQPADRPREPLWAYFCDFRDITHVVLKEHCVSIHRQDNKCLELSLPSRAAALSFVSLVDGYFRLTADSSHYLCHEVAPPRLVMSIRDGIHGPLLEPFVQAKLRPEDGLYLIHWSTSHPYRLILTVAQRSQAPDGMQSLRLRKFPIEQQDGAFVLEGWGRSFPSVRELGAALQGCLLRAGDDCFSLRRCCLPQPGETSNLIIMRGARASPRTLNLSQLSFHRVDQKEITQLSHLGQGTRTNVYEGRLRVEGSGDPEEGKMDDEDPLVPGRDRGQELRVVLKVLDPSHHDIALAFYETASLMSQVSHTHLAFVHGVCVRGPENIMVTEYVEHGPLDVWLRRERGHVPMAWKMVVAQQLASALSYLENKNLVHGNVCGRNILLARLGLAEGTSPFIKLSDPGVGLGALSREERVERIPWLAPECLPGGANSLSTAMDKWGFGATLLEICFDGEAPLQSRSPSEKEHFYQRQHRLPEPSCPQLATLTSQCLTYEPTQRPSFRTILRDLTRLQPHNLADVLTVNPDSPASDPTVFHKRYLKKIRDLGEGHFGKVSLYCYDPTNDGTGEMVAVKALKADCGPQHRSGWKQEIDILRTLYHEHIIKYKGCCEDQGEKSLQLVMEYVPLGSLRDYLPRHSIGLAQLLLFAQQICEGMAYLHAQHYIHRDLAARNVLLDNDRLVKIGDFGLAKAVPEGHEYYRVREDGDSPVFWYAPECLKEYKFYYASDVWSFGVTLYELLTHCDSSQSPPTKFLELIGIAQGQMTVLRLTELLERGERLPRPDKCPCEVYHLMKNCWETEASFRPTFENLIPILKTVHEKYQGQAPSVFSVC
Read-out: enzyme activity
Action: inhibitor
Tested at: 0.5 µM
Reference: control
Measurement: remaining activity
COc1cc2c(N3CCN(C(=O)Nc4ccc(OC(C)C)cc4)CC3)ncnc2cc1OCCCN1CCCCC1: 97.9%
O=Nc1c(-c2c(O)[nH]c3ccccc23)[nH]c2ccccc12: 24.3%
c1cc(-c2cnn3cc(-c4ccc(OCCN5CCCCC5)cc4)cnc23)ccn1: 69.8%
NC(=O)c1cccc(-c2cc(Nc3ccc(OC(F)(F)F)cc3)ncn2)c1: 82.7%
O=C(c1ccccc1)c1ccc(N2CCOCC2)cc1O: 110%
O=c1c(-c2ccc(F)cc2)c(-c2ccncc2)[nH]n1-c1ccc(Cl)cc1: 90.9%
CNc1cc2c(Nc3cccc(Br)c3)ncnc2cn1: 80.8%
CC(C)N(CCC(=O)c1ccc2ccccc2c1)Cc1ccccc1: 103%
CC(C)(C)c1nc2c3cc[nH]c(=O)c3c3cc(F)ccc3c2[nH]1: 1.48%
N#CC(c1ccnc(NCCc2cccnc2)n1)c1nc2ccccc2s1 (stereo not drawn): 83.2%
Nc1nc(Nc2ccc(S(N)(=O)=O)cc2)nn1C(=S)Nc1c(F)cccc1F: 5.11%
O=C1NC(=O)/C(=C/c2ccc3c(c2)OC(F)(F)O3)S1: 88.4%
CCCCc1c(-c2ccc(O)cc2)[nH]c2nccnc12: 43.4%
CC(C)n1cnc2c(Nc3cccc(Cl)c3)nc(NCCO)nc21: 105%
O=C(O)/C=C/c1cc(Br)c(Br)c(Br)c1Br: 110%
NC(=O)c1ccc(-c2nc(-c3ccc4c(c3)OCCO4)c(-c3ccccn3)[nH]2)cc1: 108%
CCN(CC)CCCCN1c2ccccc2Oc2ccc(Cl)cc21: 96.7%
Clc1ccc(Nc2nnc(Cc3ccncc3)c3ccccc23)cc1: 89.4%
N#C/C(=C(/N)SC1C=CC=CC1)c1cccc(C(O)c2ccncc2)c1 (stereo not drawn): 105%
C[C@@H](N)[C@H]1CC[C@H](C(=O)Nc2ccncc2)CC1: 89.9%
COc1cc2c(Nc3ccc(Br)cc3F)ncnc2cc1OCC1CCN(C)CC1: 97.7%
FC(F)(F)c1ccc(/C=C/c2nc(COc3ccc(CCCCn4ccnn4)cc3)co2)cc1: 99.1%
O=C1c2ccccc2-c2nc3nnnn3nc21: 77.2%

Sample 4
SMILES: Cc1nc(C2CCN(C(=O)c3ccc(OC(F)(F)F)cc3N)CC2)c2ncc(N3CCN(C)CC3)cc2n1
Tested at: 1 µM
Measurement: remaining binding
Ribosomal protein S6 kinase alpha-6, N-terminal kinase domain (RPS6KA6, Homo sapiens, UniProt Q9UK32); cell-free assay, competition with immobilised ligand: 100%
STK17A (Homo sapiens, UniProt Q9UEE5); cell-free assay, competition with immobilised ligand: 100%
CDKL3 (Homo sapiens, UniProt Q8IVW4); cell-free assay, competition with immobilised ligand: 92%
BRSK2 (Homo sapiens, UniProt Q8IWQ3); cell-free assay, competition with immobilised ligand: 100%
ALK (Homo sapiens, UniProt Q9UM73, L1196M); cell-free assay, competition with immobilised ligand: 98%
DCLK1 (Homo sapiens, UniProt O15075); cell-free assay, competition with immobilised ligand: 85%
MUSK (Homo sapiens, UniProt O15146); cell-free assay, competition with immobilised ligand: 100%
GRK1 (Homo sapiens, UniProt Q15835); cell-free assay, competition with immobilised ligand: 100%
CAMK1G (Homo sapiens, UniProt Q96NX5); cell-free assay, competition with immobilised ligand: 100%
MARK1 (Homo sapiens, UniProt Q9P0L2); cell-free assay, competition with immobilised ligand: 100%
CAMK2G (Homo sapiens, UniProt Q13555); cell-free assay, competition with immobilised ligand: 100%
CHEK2 (Homo sapiens, UniProt O96017); cell-free assay, competition with immobilised ligand: 100%
PIK3CA (Homo sapiens, UniProt P42336, M1043I); cell-free assay, competition with immobilised ligand: 96%
PLK4 (Homo sapiens, UniProt O00444); cell-free assay, competition with immobilised ligand: 77%
NTRK3 (Homo sapiens, UniProt Q16288); cell-free assay, competition with immobilised ligand: 97%
CSNK1G3 (Homo sapiens, UniProt Q9Y6M4); cell-free assay, competition with immobilised ligand: 100%
PRKCE (Homo sapiens, UniProt Q02156); cell-free assay, competition with immobilised ligand: 100%
WNK1 (Homo sapiens, UniProt Q9H4A3); cell-free assay, competition with immobilised ligand: 94%
FGFR3 (Homo sapiens, UniProt P22607); cell-free assay, competition with immobilised ligand: 100%
FLT3 (Homo sapiens, UniProt P36888, F691L/ITD); cell-free assay, competition with immobilised ligand: 84%
TESK1 (Homo sapiens, UniProt Q15569); cell-free assay, competition with immobilised ligand: 100%
CDC42BPG (Homo sapiens, UniProt Q6DT37); competition binding: 100%
ACVRL1 (Homo sapiens, UniProt P37023); cell-free assay, competition with immobilised ligand: 91%
LRRK2 (Homo sapiens, UniProt Q5S007); cell-free assay, competition with immobilised ligand: 89%
eIF-2-alpha kinase GCN2, C-terminal kinase domain (EIF2AK4, Homo sapiens, UniProt Q9P2K8, S808G); cell-free assay, competition with immobilised ligand: 90%

Repeated from above (sample 1):
CCN1C(=CC(C)=O)Sc2ccc(O)cc21: 4.33 z-score
CNc1cc(OC)c(C(=O)NC2CCN(Cc3ccccc3)C2C)cc1Cl (stereo not drawn): 2.7 z-score
NC(CO)C(=O)NNCc1ccc(O)c(O)c1O (stereo not drawn): 1.56 z-score
CC(C)(C)c1ccc(S(=O)(=O)NCc2ccc(C(=O)Nc3cccnc3)cc2)cc1: 0.751 z-score
CCOC(Cn1nc(-c2ccc3oc(N)nc3c2)c2c(N)ncnc21)OCC: -1.65 z-score
CCCCc1cc2ccccc2c(OCCN(C)C)n1: -0.638 z-score
COc1ccnc(C[S+]([O-])c2nc3cc(OC(F)F)ccc3[nH]2)c1OC (stereo not drawn): -0.425 z-score
O=C1c2cccc(O)c2C(=O)c2c(O)cccc21: 0.738 z-score
